Assay results pooled from the literature.
Lines come from different studies, so protocols differ.
Chain of UniProt P30542 (whole entry, looked up): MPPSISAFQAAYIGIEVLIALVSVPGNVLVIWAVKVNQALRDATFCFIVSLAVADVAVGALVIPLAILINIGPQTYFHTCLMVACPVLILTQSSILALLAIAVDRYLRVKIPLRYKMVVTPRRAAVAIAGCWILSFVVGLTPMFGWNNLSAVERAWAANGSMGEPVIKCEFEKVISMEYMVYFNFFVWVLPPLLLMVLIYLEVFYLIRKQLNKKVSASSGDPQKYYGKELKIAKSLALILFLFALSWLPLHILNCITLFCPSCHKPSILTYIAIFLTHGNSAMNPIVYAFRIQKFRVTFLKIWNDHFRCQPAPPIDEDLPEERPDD
Chain of UniProt Q13705 (whole entry, looked up): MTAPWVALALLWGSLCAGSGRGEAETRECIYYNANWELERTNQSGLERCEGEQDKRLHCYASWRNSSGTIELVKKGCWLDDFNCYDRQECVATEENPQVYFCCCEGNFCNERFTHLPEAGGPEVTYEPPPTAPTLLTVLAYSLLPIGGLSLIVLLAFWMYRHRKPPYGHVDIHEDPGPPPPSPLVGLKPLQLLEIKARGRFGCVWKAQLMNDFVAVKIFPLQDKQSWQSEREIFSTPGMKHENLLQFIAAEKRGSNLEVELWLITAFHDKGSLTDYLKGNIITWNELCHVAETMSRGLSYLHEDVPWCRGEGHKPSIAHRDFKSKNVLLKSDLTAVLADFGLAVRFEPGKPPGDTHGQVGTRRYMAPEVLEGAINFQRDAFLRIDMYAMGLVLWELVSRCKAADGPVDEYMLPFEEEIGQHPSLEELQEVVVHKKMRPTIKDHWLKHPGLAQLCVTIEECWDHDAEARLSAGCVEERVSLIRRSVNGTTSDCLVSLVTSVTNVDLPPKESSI
Chain of UniProt Q8IW41 (whole entry, looked up): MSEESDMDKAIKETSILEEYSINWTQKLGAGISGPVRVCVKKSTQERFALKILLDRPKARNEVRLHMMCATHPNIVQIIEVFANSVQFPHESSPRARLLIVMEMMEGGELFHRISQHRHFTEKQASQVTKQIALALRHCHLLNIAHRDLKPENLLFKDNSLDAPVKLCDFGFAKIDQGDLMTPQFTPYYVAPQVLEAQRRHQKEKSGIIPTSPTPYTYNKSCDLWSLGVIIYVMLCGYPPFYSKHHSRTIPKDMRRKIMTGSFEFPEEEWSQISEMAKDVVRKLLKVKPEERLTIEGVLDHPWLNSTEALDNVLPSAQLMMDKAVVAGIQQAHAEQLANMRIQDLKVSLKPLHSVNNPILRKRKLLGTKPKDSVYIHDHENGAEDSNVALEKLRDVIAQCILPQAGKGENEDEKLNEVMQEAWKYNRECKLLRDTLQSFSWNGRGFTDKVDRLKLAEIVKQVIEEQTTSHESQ
Chain of UniProt P78356 (whole entry, looked up): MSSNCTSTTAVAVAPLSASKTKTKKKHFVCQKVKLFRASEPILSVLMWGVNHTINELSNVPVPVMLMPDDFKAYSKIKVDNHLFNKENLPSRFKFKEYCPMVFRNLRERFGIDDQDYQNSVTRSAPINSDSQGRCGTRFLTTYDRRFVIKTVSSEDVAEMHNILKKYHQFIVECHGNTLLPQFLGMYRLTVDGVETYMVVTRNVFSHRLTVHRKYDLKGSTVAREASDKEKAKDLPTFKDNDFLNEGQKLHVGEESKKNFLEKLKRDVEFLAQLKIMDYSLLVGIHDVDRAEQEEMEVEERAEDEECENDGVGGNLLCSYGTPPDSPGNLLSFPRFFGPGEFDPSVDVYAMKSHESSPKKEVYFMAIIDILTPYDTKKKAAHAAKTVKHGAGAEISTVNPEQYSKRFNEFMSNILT
Chain of UniProt P34972 (whole entry, looked up): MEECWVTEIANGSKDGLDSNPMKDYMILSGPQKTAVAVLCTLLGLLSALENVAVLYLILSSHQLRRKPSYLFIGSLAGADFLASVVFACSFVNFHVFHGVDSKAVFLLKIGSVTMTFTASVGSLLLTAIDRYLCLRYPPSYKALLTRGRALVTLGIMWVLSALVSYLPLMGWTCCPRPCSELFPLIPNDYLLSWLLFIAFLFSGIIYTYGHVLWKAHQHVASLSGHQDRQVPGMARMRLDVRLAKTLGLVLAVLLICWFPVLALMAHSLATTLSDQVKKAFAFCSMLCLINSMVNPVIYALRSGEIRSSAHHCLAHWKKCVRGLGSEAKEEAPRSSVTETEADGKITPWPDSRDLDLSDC
Chain of UniProt P25100 (whole entry, looked up): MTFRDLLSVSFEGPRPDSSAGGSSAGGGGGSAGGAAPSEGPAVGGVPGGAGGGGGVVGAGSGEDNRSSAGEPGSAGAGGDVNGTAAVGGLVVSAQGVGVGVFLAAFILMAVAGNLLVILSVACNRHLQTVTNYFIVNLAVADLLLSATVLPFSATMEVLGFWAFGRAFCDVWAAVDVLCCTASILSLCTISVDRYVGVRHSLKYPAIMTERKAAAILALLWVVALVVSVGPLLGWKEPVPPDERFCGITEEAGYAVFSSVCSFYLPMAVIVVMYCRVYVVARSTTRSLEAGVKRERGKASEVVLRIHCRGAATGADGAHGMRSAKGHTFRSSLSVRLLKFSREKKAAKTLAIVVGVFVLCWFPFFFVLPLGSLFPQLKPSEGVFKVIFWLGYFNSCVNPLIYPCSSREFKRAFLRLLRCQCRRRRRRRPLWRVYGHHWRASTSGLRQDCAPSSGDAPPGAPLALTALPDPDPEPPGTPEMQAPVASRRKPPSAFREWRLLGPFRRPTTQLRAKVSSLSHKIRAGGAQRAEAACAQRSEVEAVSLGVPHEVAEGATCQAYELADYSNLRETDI
Chain of UniProt Q12852 (whole entry, looked up): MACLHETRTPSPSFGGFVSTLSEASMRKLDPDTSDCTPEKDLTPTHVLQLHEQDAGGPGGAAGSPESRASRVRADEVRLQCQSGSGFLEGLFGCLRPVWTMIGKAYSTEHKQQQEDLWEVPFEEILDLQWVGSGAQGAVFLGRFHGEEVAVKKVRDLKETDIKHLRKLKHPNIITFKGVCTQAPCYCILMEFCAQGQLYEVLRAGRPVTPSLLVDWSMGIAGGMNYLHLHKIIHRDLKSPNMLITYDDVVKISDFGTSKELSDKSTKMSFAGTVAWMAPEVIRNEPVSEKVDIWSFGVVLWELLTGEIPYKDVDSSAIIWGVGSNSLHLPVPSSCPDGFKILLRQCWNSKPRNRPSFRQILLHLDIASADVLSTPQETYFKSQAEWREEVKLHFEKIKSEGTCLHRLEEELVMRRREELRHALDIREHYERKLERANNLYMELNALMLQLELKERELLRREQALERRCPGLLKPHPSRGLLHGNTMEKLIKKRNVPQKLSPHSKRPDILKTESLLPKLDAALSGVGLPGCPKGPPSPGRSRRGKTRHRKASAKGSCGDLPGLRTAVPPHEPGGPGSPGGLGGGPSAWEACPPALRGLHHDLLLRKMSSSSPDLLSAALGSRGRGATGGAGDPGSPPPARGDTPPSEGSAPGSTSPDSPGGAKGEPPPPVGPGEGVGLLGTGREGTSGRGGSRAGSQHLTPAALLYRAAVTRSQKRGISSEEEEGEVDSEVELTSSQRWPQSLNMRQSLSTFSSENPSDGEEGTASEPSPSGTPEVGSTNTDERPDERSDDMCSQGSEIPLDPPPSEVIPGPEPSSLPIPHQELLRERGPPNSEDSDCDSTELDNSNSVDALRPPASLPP
Chain of UniProt Q59H18 (whole entry, looked up): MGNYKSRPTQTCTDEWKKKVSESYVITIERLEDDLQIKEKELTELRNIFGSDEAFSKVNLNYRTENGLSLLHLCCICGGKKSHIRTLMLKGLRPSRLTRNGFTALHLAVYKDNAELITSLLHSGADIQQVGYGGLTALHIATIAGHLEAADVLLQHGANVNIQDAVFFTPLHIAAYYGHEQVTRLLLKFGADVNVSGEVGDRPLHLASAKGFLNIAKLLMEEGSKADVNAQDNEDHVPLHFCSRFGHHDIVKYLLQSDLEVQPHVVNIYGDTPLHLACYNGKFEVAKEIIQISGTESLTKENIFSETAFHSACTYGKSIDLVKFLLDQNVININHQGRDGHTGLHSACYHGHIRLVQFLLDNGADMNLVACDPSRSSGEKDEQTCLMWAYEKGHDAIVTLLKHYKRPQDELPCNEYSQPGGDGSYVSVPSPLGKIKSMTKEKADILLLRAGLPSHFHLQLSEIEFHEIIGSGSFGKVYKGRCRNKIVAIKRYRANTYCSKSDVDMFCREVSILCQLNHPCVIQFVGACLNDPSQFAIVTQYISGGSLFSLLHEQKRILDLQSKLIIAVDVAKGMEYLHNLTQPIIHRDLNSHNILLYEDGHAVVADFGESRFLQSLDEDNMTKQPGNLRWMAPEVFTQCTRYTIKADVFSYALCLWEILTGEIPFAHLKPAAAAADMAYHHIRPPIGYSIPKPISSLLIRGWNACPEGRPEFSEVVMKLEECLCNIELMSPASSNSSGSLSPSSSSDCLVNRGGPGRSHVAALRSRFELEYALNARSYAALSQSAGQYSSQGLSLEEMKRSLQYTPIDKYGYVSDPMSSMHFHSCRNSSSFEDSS
Chain of UniProt P35372 (whole entry, looked up): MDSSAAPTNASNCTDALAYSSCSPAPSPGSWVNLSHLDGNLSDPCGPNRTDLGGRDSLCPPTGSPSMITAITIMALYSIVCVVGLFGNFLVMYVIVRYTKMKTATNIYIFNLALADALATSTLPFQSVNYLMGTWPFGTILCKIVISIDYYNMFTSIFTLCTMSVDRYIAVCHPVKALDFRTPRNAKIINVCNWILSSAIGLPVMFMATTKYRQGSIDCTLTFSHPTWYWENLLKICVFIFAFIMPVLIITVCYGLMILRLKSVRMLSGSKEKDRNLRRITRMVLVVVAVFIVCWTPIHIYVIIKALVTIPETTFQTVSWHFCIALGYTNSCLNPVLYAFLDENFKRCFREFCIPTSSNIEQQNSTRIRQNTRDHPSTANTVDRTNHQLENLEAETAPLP

Nc1ncc(-c2nc(N3CCOCC3)nc(N3CCOCC3)n2)c(C(F)F)n1 — remaining binding (ACVR2B (Homo sapiens, UniProt Q13705); binding, competition with immobilised ligand; 10 µM): 100%
[2H]c1c([2H])c([C@]2([2H])CCCN2C(=O)C(C)(C)Oc2ccc3cn[nH]c3c2)c([2H])c([2H])c1C([2H])([2H])[2H] — remaining binding (TNNI3K (Homo sapiens, UniProt Q59H18); binding, competition with immobilised ligand; 1 µM): 47%
CCCCCc1ccccc1C/C=C\C/C=C\C/C=C\CCCC(=O)N[C@H](C)CO — Emax (CNR2 (Homo sapiens, UniProt P34972); β-arrestin recruitment, agonist): 51%
CN1CCC[C@H]1c1cccnc1 — inhibition (ADRA1D (Homo sapiens, UniProt P25100); ligand displacement; 50 µM): -19.2%
Cc1nn(C)cc1-c1nc2c(N3CCN(Cc4ccc(Cl)cc4)CC3)c(Cl)cnc2[nH]1 — remaining binding (PIP4K2B (Homo sapiens, UniProt P78356); binding, competition with immobilised ligand; 1 µM): 28%
CC(C)CC(=O)OC[C@H]1O[C@@](C#N)(c2ccc3c(N)ncnn23)[C@H](O)[C@@H]1O — inhibition (ADORA1 (Homo sapiens, UniProt P30542); cell-free assay; 20 µM): 10%
C#Cc1n[nH]c2c(-c3cn([C@@H](C)c4ccccn4)c(=O)[nH]c3=O)cc(F)cc12 — inhibition (MAPKAPK5 (Homo sapiens, UniProt Q8IW41); enzyme activity, inhibitor; 0.1 µM): 3%
COc1ncccc1-c1cnn2ccc(N3CCN(C(=O)OC(C)C)CC3)nc12 — remaining binding (MAP3K12 (Homo sapiens, UniProt Q12852); binding, competition with immobilised ligand; 1 µM): 100%
Oc1cccc(N2CCN(CCCc3ccccc3)CC2)c1 — Emax (OPRM1 (Homo sapiens, UniProt P35372); cAMP, agonist; OPRM1): 0%

For quick reference, copied from above:
Oc1cccc(N2CCN(CCCc3ccccc3)CC2)c1 — Emax (OPRM1 (Homo sapiens, UniProt P35372); cAMP, agonist; OPRM1): 0%
